Experimental data pooled from the literature.
Protocols differ between the studies behind these lines. “And” joins repeats or separate records; there may be more than shown. ± gives the spread as reported.

SMILES	test	test system	setting	how to read	quantity	result
Cc1noc(NS(=O)(=O)c2ccc(N=NN(O)c3ccccc3)cc2)c1C	carrageenan-induced paw edema	Wistar rat	oral, 100 mg/kg, 1 h after carrageenan, together with: carrageenan 1% subplantar	higher = more edema	paw edema volume	5.31 ± 0.46 a.u.
CC(C)C[C@H](NC(=O)[C@@H](Cc1c[nH]c2ccccc12)NC(=O)[C@H](Cc1ccc(O)cc1)NC(=O)[C@H](CO)NC(=O)[C@H](Cc1c[nH]c2ccccc12)NC(=O)[C@H](Cc1c[nH]cn1)NC(=O)[C@@H]1CCC(=O)N1)C(=O)N[C@@H](CCCNC(=N)N)C(=O)N1CCC[C@H]1C(=O)NCC(N)=O	Tanner staging	Chinese overall, central precocious puberty	intramuscular, 22.5 mg day 1, month 6, month 6	reference: baseline	stable pubic hair stage	92.4%
O=S(=O)(Nc1nccs1)c1ccc(N=NN(O)c2ccccc2)cc1	carrageenan-induced paw edema	Wistar rat	oral, 100 mg/kg, 1 h after carrageenan, together with: carrageenan 1% subplantar	higher = more edema	paw edema volume	6.52 ± 1.72 a.u.
NCC(=O)Nc1cncc(-c2nn3c(=O)cc(N4CCNCC4)nc3s2)c1	ADP-induced platelet aggregation, light transmission aggregometry	human, stable CAD on aspirin, ex vivo platelets	subcutaneous, 0.05 mg/kg, 30 min post-dose, median value, together with: ADP 20 µM	–	inhibition	72.4%
CC#CC(=O)N[C@H]1CCCN(c2c(F)cc(C(N)=O)c3[nH]c(C)c(C)c23)C1	refers to: IgG	human	10 mg once daily, day 21	reference: baseline	serum immunoglobulin	-4.2 % change
C=CCn1c(=O)c2cnc(Nc3ccc(N4CCN(C)CC4)cc3)nc2n1-c1ccc2c(n1)[C@@](O)(CC)CC2	–	SW837, NOD/SCID mice, xenograft	oral, 80 mg/kg once daily, day 35	reference: vehicle	tumour volume difference	328 ± 31.1 mm3
Cc1noc(NS(=O)(=O)c2ccc(N=NN(C)O)cc2)c1C	carrageenan-induced paw edema	Wistar rat	oral, 100 mg/kg, 3 h after carrageenan, together with: carrageenan 1% subplantar	higher = more edema	paw edema volume	5.37 ± 0.38 a.u.
COc1ccc(C2=N[C@@H](c3ccc(Cl)cc3)[C@@H](c3ccc(Cl)cc3)N2C(=O)N2CCNC(=O)C2)c(OC(C)C)c1	histology	Dmd C3333Y mice, triceps	dose not given	–	centrally nucleated fibres	95% and 74% and 88% and 96% and 86%
C[C@H]1C[C@H]2CSC(N)=N[C@@]2(c2nc(NC(=O)c3ccc(OC(F)F)cn3)cs2)CO1	refers to: total Aβ	healthy adults, plasma	40 mg single dose, 4 h post-dose	reference: placebo	percent change from baseline	-36.8%
CCCN(O)N=Nc1ccc(S(=O)(=O)Nc2nccs2)cc1	carrageenan-induced paw edema	Wistar rat	oral, 100 mg/kg, 4 h after carrageenan, together with: carrageenan 1% subplantar	higher = more edema	paw edema volume	4.22 ± 0.89 a.u.
O=C(O)CNC(=O)Cc1ccccc1	–	ventricular cardiomyocytes, C57BL/6 mouse	dose not given, 0.104 s	–	sarcomere length	1.72 µm
C[C@H]1O[C@@H](O[C@H]2CC[C@@]3(C)[C@@H](CC[C@]4(C)[C@@H]3C=C[C@]35OC[C@@]6(CCC(C)(C)C[C@H]63)[C@@H](O)C[C@]54C)[C@]2(C)CO)[C@H](O)[C@@H](O[C@@H]2O[C@H](CO)[C@@H](O)[C@H](O)[C@H]2O)[C@H]1O	Western blot, refers to: caspase3	chronic-plus-binge ethanol-fed mice, liver	dose not given, low dose, unit not given	reference: β-actin	protein level	1.01 and 1.03 and 1.24
CN(C)C(=O)c1cc2cnc(Nc3ccc(N4CCNCC4)cn3)nc2n1C1CCCC1	RNA sequencing, refers to: HALLMARK_EPITHELIAL_MESENCHYMAL_TRANSITION	MB002 tumour	concentration not given	reference: vehicle, direction not given	GSEA enrichment score	-0.321
OC(CCN1CCCCC1)(c1ccccc1)C1CC2C=CC1C2 (centres unmarked)	resting-state EEG	healthy elderly humans	oral, 2 mg, eyes open, LS mean	reference: baseline	change, beta power, EEG O1-Pz	7.4%
Cc1cn(-c2ccc3n(c2=O)CCN([C@@H](C)[C@@H]2CC[C@H](c4cc(F)c(Cl)cc4C(F)(F)F)O2)C3=O)cn1	–	human subjects, CSF	360 mg once daily for 14 days, 336 h	reference: baseline, placebo-adjusted	CSF total Aβ change	-4.5%
Oc1ccc(/C=C/c2cc(O)cc(O)c2)cc1	RT-qPCR, refers to: BCL2 mRNA	rat, MNU-induced, colon	oral, 10 mg/kg, unit not given	reference: GAPDH	BCL2 mean ΔCq	0.88
COc1cc(F)c([C@@H]2CNC(=O)[C@H]2NC(=O)Nc2ccccc2)c(F)c1	terminal haemodynamics	rat, permanent coronary occlusion MI	1 mg/kg, 1008 h, 6 weeks post-MI	–	left ventricular end-diastolic pressure	14 ± 7 mmHg
COc1nc(NCc2cn(-c3ccc(NC(=O)c4ccc(C)cc4)cc3)nn2)nc(OC)n1	cell viability, MTT	normal colonocytes, rat	72 h	–	IC50	0.0252 ± 0.00694 µM
Cc1cccc(N(O)N=Nc2ccc(S(=O)(=O)Nc3onc(C)c3C)cc2)c1	carrageenan-induced paw edema	Wistar rat	oral, 100 mg/kg, 2 h after carrageenan, together with: carrageenan 1% subplantar	higher = more edema	paw edema volume	5.78 ± 0.66 a.u.
COc1cc(/C=C/C(=O)N2CCC=CC2=O)cc(OC)c1OC	qRT-PCR, refers to: Survivin	nude mouse, 468 xenograft, tumour	15 mg/kg, 21 days, unit not given	reference: β-actin, vehicle	mRNA level	0.552
Cc1ccc(C(=O)OCc2ccc([C@@H](CN)C(=O)Nc3ccc4cnccc4c3)cc2)c(C)c1	tonometry	NZW rabbit, magnetic bead-induced ocular hypertension	ocular, 0.02%, 24 h	–	IOP	37.5 mmHg
CCc1c(C)nc(-c2ccc(Cl)s2)nc1Nc1ccc(CC(=O)O)cc1	–	C57BL/6J mouse, high-fat diet MASH model	intraperitoneal, 0.3 mg/kg daily, 60% fat diet for 12 weeks, dosed final four weeks, together with: glucose 2 g/kg ip	reference: untreated	glucose tolerance AUC	no effect
CCCCC1(CCCC)CN(c2ccccc2)c2cc(SC)c(OCC(=O)N[C@@H](C(=O)NCC(=O)O)c3ccccc3)cc2S(=O)(=O)C1	refers to: 7α-hydroxy-4-cholesten-3-one	human, plasma	15 mg once daily, day 9	–	plasma C4	79.5 ng/mL
N#Cc1ccc2c(c1)[C@H]1CCCN(C(=O)c3ccc4[nH]cnc4c3)[C@H]1C2	–	human clinical trial, female	oral, 240 mg once daily, at last treatment	–	androstenedione level	5.43 nmol/L
Cc1cc(F)cc2c(CCC(=O)N[C@@H]3C(=O)NC[C@H]3O)c(-c3ccc(F)cc3)[nH]c12	proteinuria	APOL1 G2 mice	30 mg/kg twice daily, together with: IFNγ	–	UACR AUC(day 6-14)	16500 µg·days/mg

SMILES	test	test system	setting	how to read	quantity	result
C[C@H](Oc1ccc(Br)cc1-c1ccon1)C(=O)O	last response peak	human, tibialis anterior muscle	50 mg, 15 Hz, single ascending dose	–	difference from placebo	-9.34%
Cn1cc(Nc2nccc(-c3ccc4c(c3)CN(C3COC3)CC[C@H]4NC(=O)c3cn(C(C)(C)C)nn3)n2)cn1	refers to: Senescence Pathway	splenic B cells, mouse	in vivo, 30 mg/kg, IgD-activated B cells	reference: vehicle, positive = activation	pathway activation z-score	3.83
CC(C)[C@H](C(=O)Nc1ccc(C(=O)NO)cc1)c1ccccc1	volumetric MRI	human, right meningioma	dose not given, day 224	–	tumour growth rate	0 %/year
COc1ccccc1[C@H](Cn1c(=O)n(C(C)(C)C(=O)O)c(=O)c2c(C)c(-c3ncco3)sc21)OC1CCOCC1	–	human	50 mg, post-treatment	–	serum total cholesterol	176 ± 51.4 mg/dL
CCCNc1nc(Nc2ccc(C#N)cc2)ncc1C#CCCCNC(=O)[C@H](C)N(C)C(=O)/C=C/CN(C)C	–	human	50 mg twice daily, after 4 cycles	–	marrow blasts	1%
CCN(O)N=Nc1ccc(S(=O)(=O)Nc2cc(C)on2)cc1	carrageenan-induced paw edema	Wistar rat	oral, 100 mg/kg, 0 h (baseline), together with: carrageenan 1% subplantar	higher = more edema	paw edema volume	3.4 ± 0.12 a.u.
COc1ccc(-c2cncc(N[C@@H](C)c3cccc(NC(=O)c4cncc(C)c4)c3)n2)cc1OC	refers to: rno-miR-204-5p	rat SU5416/hypoxia model, lung	dose not given	reference: SU5416/hypoxia vehicle	fold change	1.9
c1ccc(-c2n[nH]cc2-c2ccnc3ccccc23)nc1	kinase binding, competitor, MIB/MS competition, refers to: ATG1	Candida albicans cell lysate	1 µM	reference: DMSO	log2 fold change	1.23
CN(CCOc1ccc(CC2SC(=O)NC2=O)cc1)c1ccccn1 (racemic)	indirect calorimetry	mice, diet-induced obese	dose not given, average over 72 h, end of treatment	–	VCO2	4.2 ± 0.41 L/h/kg
CO[C@H]1CC[C@H](N2C(=O)CNc3ncc(-c4ccc(C(C)(C)O)nc4)nc32)CC1	flow cytometry	stimulated B cells, human, blood	60 mg single dose, 1.5 h, median	reference: baseline	pS6RP change from baseline	-67.2%
O=C(O)c1cccc(-c2noc(-c3ccccc3F)n2)c1	DCPIP reduction	K562 cell lysate	40 mM	–	DR activity	0.0121 OD/min and 0.0133 OD/min and 0.0132 OD/min
O=C(OC(C(F)(F)F)C(F)(F)F)N1CCN(Cc2cccc(Oc3ccccc3)c2)CC1	PET blocking study	rhesus monkey, brain FCX	0.01 mg/kg, compound pretreatment, together with: [18F]T-401 tracer	–	k4	0.0994 min⁻¹
Cc1n[nH]c2ccc(-c3cc(OC[C@@H](N)Cc4ccccc4)cnc3-c3ccoc3)cc12	kinase binding, competitor, MIB/MS competition, refers to: CKA2	Candida albicans cell lysate	1 µM	reference: DMSO	log2 fold change	0.026
COc1cc(-c2ccccc2)ncc1C(=O)Nc1ccc2c(=O)[nH]c(-c3ccc(C(C)(C)O)cc3)nc2c1	RNA-seq GSEA, refers to: FALLER_ENTEROCYTE_MOUSE	organoids, small intestinal, Apc Q1405X, mouse	dose not given, 3 days, wild-type organoids	reference: DMSO, direction not given	normalized enrichment score	-1
CC(=O)Oc1cc2c(s1)CCN(C(C(=O)C1CC1)c1ccccc1F)C2 (centres unmarked)	platelet aggregation, light transmission aggregometry	human patients, platelet-rich plasma	3 h, together with: TRAP 5 µM	–	patients with IPA above 80%	9.5%
Cc1ccc(N(O)N=Nc2ccc(S(=O)(=O)Nc3cc(C)on3)cc2)cc1	carrageenan-induced paw edema	Wistar rat	oral, 100 mg/kg, 3 h after carrageenan, together with: carrageenan 1% subplantar	higher = more edema	paw edema volume	4.21 ± 0.67 a.u.
COc1cc2cc(-c3ccc(CC(=O)Nc4cc(C(C)(C)C(F)(F)F)no4)cn3)cnc2cc1OC	RECIST v1.1	human RET-altered solid tumours	12 75 mg tablets, phase I	–	best overall response SD	67%
CCCN(O)N=Nc1ccc(S(=O)(=O)Nc2onc(C)c2C)cc1	carrageenan-induced paw edema	Wistar rat	oral, 100 mg/kg, 3 h after carrageenan, together with: carrageenan 1% subplantar	higher = more edema	paw edema volume	5.15 ± 0.41 a.u.
Cc1nn(-c2nc3c(F)cc(F)cc3s2)c(O)c1C(c1ccc(C(F)(F)F)cc1)c1c(C)nn(-c2nc3c(F)cc(F)cc3s2)c1O	–	mouse, cerulein-induced acute pancreatitis, serum	25 mg/kg	–	amylase activity	74.8 mOD/min and 47.1 mOD/min and 159 mOD/min and 126 mOD/min and 183 mOD/min
CN[C@@H]1COc2c(S(=O)(=O)NC(=O)Nc3c4c(cc5c3CCC5)CCC4)cnn2C1	refers to: IL-1β	human participants, whole blood ex vivo	450 mg single dose, 48 h, together with: LPS/ATP	reference: baseline	inhibition	-45.5%
NC(=O)c1cnc2[nH]ccc2c1N[C@@H]1[C@@H]2CC3C[C@H]1C[C@@](O)(C3)C2	CD8+ naive T cells, flow cytometry	Japanese humans, peripheral blood	60 mg single dose	reference: baseline	percent change	-1.43%
C[C@@H](NC(=O)N1C(=O)[C@H](Cc2ccnc(N)c2)[C@H]1C(=O)O)C1CCCCC1	–	human	iv infusion, 1.5 mg/kg/h, 24 h, unit not given	reference: baseline	ACT Emax	1.08
Nc1ccc(O)c(C(=O)O)c1	–	mice, DSS-induced acute colitis	oral, dose not given, day 15	–	colon length	5.94 cm
CC(C)NCC(O)c1ccc(O)c(O)c1 (centres unmarked)	–	ventricular cardiomyocytes, C57BL/6 mouse	dose not given, 0.268 s	–	sarcomere length	1.67 µm
COc1nc(NCc2cn(-c3ccc(C(=O)Nc4ccccc4)cc3)nn2)nc(OC)n1	cell viability, MTT	normal colonocytes, rat	72 h	–	IC50	0.158 ± 0.00322 µM

Repeated from above:
SMILES	test	test system	setting	how to read	quantity	result
OC(CCN1CCCCC1)(c1ccccc1)C1CC2C=CC1C2 (centres unmarked)	resting-state EEG	healthy elderly humans	oral, 2 mg, eyes open, LS mean	reference: baseline	change, beta power, EEG O1-Pz	7.4%
NCC(=O)Nc1cncc(-c2nn3c(=O)cc(N4CCNCC4)nc3s2)c1	ADP-induced platelet aggregation, light transmission aggregometry	human, stable CAD on aspirin, ex vivo platelets	subcutaneous, 0.05 mg/kg, 30 min post-dose, median value, together with: ADP 20 µM	–	inhibition	72.4%
CO[C@H]1CC[C@H](N2C(=O)CNc3ncc(-c4ccc(C(C)(C)O)nc4)nc32)CC1	flow cytometry	stimulated B cells, human, blood	60 mg single dose, 1.5 h, median	reference: baseline	pS6RP change from baseline	-67.2%
Cc1noc(NS(=O)(=O)c2ccc(N=NN(C)O)cc2)c1C	carrageenan-induced paw edema	Wistar rat	oral, 100 mg/kg, 3 h after carrageenan, together with: carrageenan 1% subplantar	higher = more edema	paw edema volume	5.37 ± 0.38 a.u.
COc1nc(NCc2cn(-c3ccc(NC(=O)c4ccc(C)cc4)cc3)nn2)nc(OC)n1	cell viability, MTT	normal colonocytes, rat	72 h	–	IC50	0.0252 ± 0.00694 µM
CCCNc1nc(Nc2ccc(C#N)cc2)ncc1C#CCCCNC(=O)[C@H](C)N(C)C(=O)/C=C/CN(C)C	–	human	50 mg twice daily, after 4 cycles	–	marrow blasts	1%
COc1ccccc1[C@H](Cn1c(=O)n(C(C)(C)C(=O)O)c(=O)c2c(C)c(-c3ncco3)sc21)OC1CCOCC1	–	human	50 mg, post-treatment	–	serum total cholesterol	176 ± 51.4 mg/dL
Cc1ccc(N(O)N=Nc2ccc(S(=O)(=O)Nc3cc(C)on3)cc2)cc1	carrageenan-induced paw edema	Wistar rat	oral, 100 mg/kg, 3 h after carrageenan, together with: carrageenan 1% subplantar	higher = more edema	paw edema volume	4.21 ± 0.67 a.u.
